{"data": "Measurements pooled from the literature", "note": "Values joined by “and” are separate records of one study, mostly repeats; a detail may differ. ± gives the spread as reported."}
{"SMILES": "Cc1ccc(N2CC3CCC(C2)N3C)cc1C(=O)N[C@H](C)c1cc(-c2cnn(C)c2)nc2ccccc12", "target": "trypsin", "assay": "enzyme activity", "conditions": "concentration not given", "quantity": "remaining activity", "result": "100% and 102% and 101% and 103%"}
{"SMILES": "Cn1ccc2cc(-n3c(=O)[nH]c4sc5c(c4c3=O)CCCC5)ccc21", "target": "GABAA receptor rat", "assay": "binding, radioligand binding", "conditions": "10 µM, central, together with: flunitrazepam", "quantity": "inhibition", "result": "46%"}
{"SMILES": "CC[C@H](C)[C@H](NC(=O)[C@H](CC(C)C)NC(=O)[C@H](CC(C)C)NC(=O)[C@H](CC(=O)O)NC(=O)[C@@H](NC(=O)[C@H](CCC(=O)O)NC(=O)[C@H](CCCCN)NC(=O)[C@H](Cc1ccc(O)cc1)NC(=O)[C@H](CCCCN)NC(=O)[C@H](Cc1c[nH]cn1)NC(=O)CNC(=O)CN)[C@@H](C)O)C(=O)N[C@@H](CC(C)C)C(=O)N[C@@H](Cc1ccccc1)C(=O)N[C@@H](CCCCN)C(=O)N[C@@H](CC(=O)O)C(=O)N[C@@H](CC(=O)O)C(=O)N[C@@H](Cc1ccc(O)cc1)C(=O)N[C@@H](Cc1ccccc1)C(=O)N[C@@H](C)C(=O)N[C@@H](CCCCN)C(=O)N[C@@H](CCCCN)C(=O)N[C@@H](CC(N)=O)C(=O)N[C@@H](CCC(=O)O)C(=O)N[C@@H](CCC(=O)O)C(=O)N[C@@H](CCCNC(=N)N)C(=O)N[C@@H](CCCCN)C(N)=O", "target": "HCV IRES RNA", "assay": "MALDI-TOF mass spectrometry, item: 2',3'-cyclic phosphate products", "test system": "hepatitis C virus", "quantity": "initial cleavage rate", "result": "10.5 ± 4.3 %/min"}
{"SMILES": "O=C(Oc1cccc2c1C(=O)C=CC2=O)c1ccccc1", "target": "mouse brain serine hydrolases", "assay": "competitive ABPP", "conditions": "non-selective labelling block, together with: FP-rhodamine", "quantity": "IC50", "result": "> 50 µM"}
{"SMILES": "Cc1ccc2c(n1)c(-c1cccc(S(C)(=O)=O)c1)c(C)n2C/C(F)=C/CN", "target": "kainate receptor (rat)", "assay": "radioligand binding", "conditions": "10 µM, rat", "quantity": "inhibition", "result": "6%"}
{"SMILES": "COc1ccccc1-c1n[nH]c2nc(NC3CCN(C(=O)Cc4ccc(F)cc4F)CC3)ncc12", "target": "Leishmania donovani LINJ.11.1000", "assay": "bead binding competition", "test system": "Leishmania donovani extract", "conditions": "10 µM", "scale": "reference: vehicle", "quantity": "relative abundance", "result": 0.87}
{"SMILES": "CC[C@@H]1CN2CCc3c([nH]c4cccc(OC)c34)[C@@H]2C[C@@H]1/C(=C\\OC)C(=O)OC", "target": "rabbit anti-mitragynine polyclonal IgG", "assay": "antigen binding, competitor, competitive indirect ELISA", "test system": "15% methanol", "conditions": "90 min antibody-standard, 60 min antibody-antigen incubation", "quantity": "IC50", "result": "0.09 µg/mL and 0.1 µg/mL"}
{"SMILES": "CC(C)C[C@H](NC(=O)[C@H](CC(=O)O)NC(=O)[C@@H](NC(=O)[C@H](CCC(=O)O)NC(=O)[C@H](CCCCN)NC(=O)[C@H](Cc1ccc(O)cc1)NC(=O)[C@H](CCCCN)NC(=O)[C@H](Cc1c[nH]cn1)NC(=O)CNC(=O)CN)[C@@H](C)O)C(N)=O", "target": "HCV IRES RNA", "assay": "MALDI-TOF mass spectrometry, item: 5'-phosphate products", "test system": "hepatitis C virus", "quantity": "initial cleavage rate", "result": "6.1 ± 1.4 %/min"}
{"SMILES": "Cc1cc(O)cc(C)c1C[C@H](N)C(=O)N[C@H](CCCNC(=N)N)C(=O)N[C@@H](Cc1ccccc1)C(=O)N[C@@H](CCCCN)C(=O)NCCCCCCCCNC(=O)[C@H](Cc1ccccc1)NC(=O)[C@H](CC1CCCCC1)NC[C@@H]1Cc2ccccc2CN1C(=O)[C@@H](N)Cc1ccc(O)cc1", "target": "delta opioid receptor (mouse)", "assay": "antagonist", "test system": "mouse vas deferens", "conditions": "together with: DPDPE", "quantity": "Ke", "result": "15.6 ± 3.8 nM"}
{"note": "Some of these lines once more:"}
{"SMILES": "Cc1ccc(N2CC3CCC(C2)N3C)cc1C(=O)N[C@H](C)c1cc(-c2cnn(C)c2)nc2ccccc12", "target": "trypsin", "assay": "enzyme activity", "conditions": "concentration not given", "quantity": "remaining activity", "result": "100% and 102% and 101% and 103%"}
